# Measurements collected from several papers.
# Protocols differ between the studies behind these lines.
SMILES,test,test system,setting,how to read,measurement,result
OC(CCN1CCCCC1)(c1ccccc1)C1CC2C=CC1C2 (centres unmarked),resting-state EEG,healthy elderly humans,"oral, 2 mg, eyes open, LS mean",,EEG Alpha1-power Fz-Cz,2.6 µV²
C[C@H](Oc1ccc(Br)cc1-c1ccon1)C(=O)O,muscle velocity recovery cycle,"human, tibialis anterior muscle","400 mg once daily, last response peak at 15 Hz, multiple ascending dose",,difference from placebo,3.84%
Cc1n[nH]c2ccc(-c3cc(OC[C@@H](N)Cc4ccccc4)cnc3-c3ccoc3)cc12,"kinase binding, competitor, MIB/MS competition, refers to: HRK1",Candida albicans cell lysate,10 µM,reference: DMSO,log2 fold change,-0.517
N#CCC1CCN(c2nc(Nc3ccc(N4CCC(O)CC4)cc3)c3c(=O)[nH]ncc3n2)CC1,"Olink multiplex, refers to: CD163","human, serum","80 mg, day 15",reference: baseline,fold change from baseline,-1.35
N#Cc1ccc2c(-c3ccncc3)c(-c3ccc(F)cc3)nn2c1,"kinase binding, competitor, MIB/MS competition, refers to: CTK1",Candida albicans cell lysate,10 µM,reference: DMSO,log2 fold change,-0.223
CN[C@@H]1COc2c(S(=O)(=O)NC(=O)Nc3c4c(cc5c3CCC5)CCC4)cnn2C1,refers to: IL-18,"human participants, whole blood ex vivo","300 mg twice daily, multiple doses, 96 h, IL-18, circulating, adjusted for, added: LPS/ATP",reference: baseline,inhibition,96.9%
N#Cc1ccn2c(-c3ccncc3)c(-c3ccc(F)cc3)nc2c1,"kinase binding, competitor, MIB/MS competition, refers to: SCH9",Candida albicans cell lysate,1 µM,reference: DMSO,log2 fold change,-0.109
CC(C)NCC(O)c1ccc(O)c(O)c1 (centres unmarked),,"ventricular cardiomyocytes, C57BL/6 mouse","dose not given, 0.732 s",,sarcomere length,1.72 µm
NC(=O)c1cnc2[nH]ccc2c1N[C@@H]1[C@@H]2CC3C[C@H]1C[C@@](O)(C3)C2,flow cytometry,"Japanese healthy men, blood","oral, 10 mg twice daily, 72 h after day 7 dose",reference: baseline,CD4+ effector T-cell change,0.1%
O=C(O)CNC(=O)Cc1ccccc1,,"ventricular cardiomyocytes, C57BL/6 mouse","dose not given, 0.796 s",,sarcomere length,1.7 µm
C[C@@H](NC(=O)N1C(=O)[C@H](Cc2ccnc(N)c2)[C@H]1C(=O)O)C1CCCCC1,,"human, plasma","continuous intravenous infusion, 0.6 mg/kg/h, days 1 to 6 of 5-day infusion, median",reference: baseline,time to maximum PT over baseline,84.3 h

# Excerpt of the above:
SMILES,test,test system,setting,how to read,measurement,result
C[C@H](Oc1ccc(Br)cc1-c1ccon1)C(=O)O,muscle velocity recovery cycle,"human, tibialis anterior muscle","400 mg once daily, last response peak at 15 Hz, multiple ascending dose",,difference from placebo,3.84%
